# Measurements gathered from unrelated publications.
# Each line is one published result; not all experiments were run side by side.
# Technique: steady-state kinetics
# B1: SCO6712 S292F (Streptomyces coelicolor, UniProt Q9XAL8); chain AKGITARTAPAGGEVRHLKMYAEKLADGQMGYGFEKGKASVPGPLIEVNEGDTLHIEFTNTMDVRASLHVHGLDYEISSDGTAMNKSDVEPGGTRTYTWRTHKPGRRDDGTWRPGSAGYWHYHDHVVGTEHGTGGIRNGLYGPVIVRRKGDVLPDATHTIVFNDMTINNRKPHTGPDFEATVGDRVEIVMITHGEYYHTFHMHGHRWADNRTGILTGPDDPSRVIDNKITGPADSFGFQIIAGEGVGAGAWMYHCHVQFHSDMGMVGLFLVKKPDGTIPGYEPHEHGGATAKSGESGEPTGGAAAHEHEH
# B2: gdhA W89F (Thermococcus profundus, UniProt O74024); chain MVEIDPFEMAVKQLERAAQYMDISEEALEWLKKPMRIVEVSVPIEMDDGSVKVFTGFRVQHNWARGPTKGGIRWHPAETLSTVKALATFMTWKVAVVDLPYGGGKGGIIVNPKELSEREQERLARAYIRAVYDVIGPWTDIPAPDVYTNPKIMGWMMDEYETIMRRKGPAFGVITGKPLSIGGSLGRGTATAQGAIFTIREAAKALGIDLKGKKIAVQGYGNAGYYTAKLAKEQLGMTVVAVSDSRGGIYNPDGLDPDEVLKWKREHGSVKDFPGATNITNEELLELEVDVLAPAAIEEVITEKNADNIKAKIVAEVANGPVTPEADDILREKGILQIPDFLCNAGGVTVSYFEWVQNINGYYWTEEEVREKLDKKMTKAFWEVYNTHKDKNIHMRDAAYVVAVSRVYQAMKDRGWVKK
# B3: enzyme (Staphylococcus aureus, UniProt A0A0H2XHR6); chain MQKSALFAPEKYNIISEIEKYSHIPDKKAILYHNTEGEDISVTYQQLIEQSNKVGNVLASHGLSKGDKVLIMMPRSIATYELYIAALKLGVAIIPCSEMLRTKDLQYRITHGEINAVIALEPFTVEFEKIKEYDALTKFVIAGQKDGWISLEAEKENASNKLEMADTTRDDMAILSYTSGTTGNPKAVTHCHGWGFAHLQMAPKHWLCINEDDLVWATAAPGWQKWVWSPFLSVLGSGATAFVFNGRFSPETYLELLQKYQINVLCCTPTEYRMMAKLQNLNDYDLTHLHSAVSAGEPLNREVVEQFKKYFNLTVRDGYGQTESTLLIGFLKDTPQRIGSMGKGIPGSSVTVVDDEGNSVPANTKGNIAVPLDLPALFKGYYKEPERTAKAQTGKYYITGDLAHVDDDGYFWFEGRRDDIIISSGYTIGPFEVEDALTNHPAVKECAVVAKPHDIRGNIVKAFVILQDHTAGDDTLVKELQQFVKNEVAPYKYPREIEFVDDLPKTNSGKIRRVELRDAEIEKWQQQKDSNQ
# B4: enzyme (Methanococcus maripaludis, UniProt Q6LX40); chain MLIGVPKEIKNNENRVAITPAGVEAFVLAGHKVYIEKGAGLGSAITDEEYVAAGAEILATAKEVFDTAEMIIKVKEPLKSEFELFKEGQILFTYLHLAPEPQLTKALLDKKITGIAYETVQLADRSLPLLTPMSEIAGRMSIQLGAQYLEKQEGGKGVLLGGVPGVEPAEVVIVGGGIVGTNAAKIAVGMGAKVTILDVNTRRLAYLDDIFGNKVTTLMSNSFNIAKAVKKADLLVGCVLIPGAKAPKLVSEEMVKSMQPGSVIVDVAIDQGGSIETIDRITTHDNPTYEKFGVIHYAVANIPGAVARTSTYALTNDTLPYALQIANKGYKQAVIENPALLKGLNTLNGKVTYEAVAKAHDLPYTPAEKALNE
# B5: enzyme (Lactiplantibacillus plantarum, UniProt Q06115); chain CTAITYQSYNNYFGRNFDYEISYNEMVTITPRKYPLVFRKVENLDHHYAIIGITADVESYPLYYDAMNEKGLCIAGLNFAGYADYKKYDADKVNITPFELIPWLLGQFSSVREVKKNIQKLNLVNINFSEQLPLSPLHWLVADKQESIVIESVKEGLKIYDNPVGVLTNNPNFDYQLFNLNNYRALSNSTPQNSFSEKVDLDSYSRGMGGLGLPGDLSSMSRFVRAAFTKLNSLSMQTESGSVSQFFHILGSVEQQKGLCEVTDGKYEYTIYSSCCDMDKGVYYYRTYDNSQINSVSLNHEHLDTTELISYPLRSEAQYYAVN
# B6: ackA (Escherichia coli, UniProt P0A6A3); chain MSSKLVLVLNCGSSSLKFAIIDAVNGEEYLSGLAECFHLPEARIKWKMDGNKQEAALGAGAAHSEALNFIVNTILAQKPELSAQLTAIGHRIVHGGEKYTSSVVIDESVIQGIKDAASFAPLHNPAHLIGIEEALKSFPQLKDKNVAVFDTAFHQTMPEESYLYALPYNLYKEHGIRRYGAHGTSHFYVTQEAAKMLNKPVEELNIITCHLGNGGSVSAIRNGKCVDTSMGLTPLEGLVMGTRSGDIDPAIIFHLHDTLGMSVDAINKLLTKESGLLGLTEVTSDCRYVEDNYATKEDAKRAMDVYCHRLAKYIGAYTALMDGRLDAVVFTGGIGENAAMVRELSLGKLGVLGFEVDHERNLAARFGKSGFINKEGTRPAVVIPTNEELVIAQDASRLTA
# B7: enzyme (Arabidopsis thaliana, UniProt Q944I4); chain SSYLSSKLSPIRTHSSFAACGCSWIQDNSMVHDYATTTNGTSKRCSALPTTNTVDVSSVSDLFEFICSGPLVNKIGITPQRVGQSIDKWLLYGSQLCRLFQLNELKLTIPQKARLYHYYIPVFIWCEDQIALHNSKFKDGDDVPPLVIGFSAPQGCGKTTLVFALDYLFKTTKKKSATISVDDFYLTAEGQAELRKKNPGNALLEYRGNAGSHDLKLSVETLEALSKLTKEGLKMKVPRYNKSAYSGRGDRADSSTWPEVEGPLSVILFEGWMLGFKPLPADVVKAVDPQLEVVNKNLEAYYDAWDKYIDAWVVIKIQDPSYVYRWRLQAEIAMRQDGQAGMSDEEVNDFVSRYLPAYKAYLPTLYAEGPSGSDPDRVLAIDIDEERNPILAN
# B8: enzyme (Arabidopsis thaliana, UniProt Q9LY48); chain MNIFQDWPEPIVRVQSLSESNLGAIPNRYVKPLSQRPNITPHNKHNPQTTTIPIIDLGRLYTDDLTLQAKTLDEISKACRELGFFQVVNHGMSPQLMDQAKATWREFFNLPMELKNMHANSPKTYEGYGSRLGVEKGAILDWSDYYYLHYQPSSLKDYTKWPSLPLHCREILEDYCKEMVKLCENLMKILSKNLGLQEDRLQNAFGGKEESGGCLRVNYYPKCPQPELTLGISPHSDPGGLTILLPDEQVASLQVRGSDDAWITVEPAPHAFIVNMGDQIQMLSNSIYKSVEHRVIVNPENERLSLAFFYNPKGNVPIEPLKELVTVDSPALYSSTTYDRYRQFIRTQGPRSKCHIDELKSPR
# B9: enzyme (Haliscomenobacter hydrossis, UniProt F4KU78); chain MKQKPAFIPYAGAQFEPEEMLSKSAEYYQFMDHRRTVREFSNRAIPLEVIENIVMTASTAPSGAHKQPWTFVVVSDPQIKAKIRQAAEKEEFESYNGRMSNEWLEDLQPFGTDWHKPFLEIAPYLIVVFRKAYDVLPDGTQRKNYYVQESVGIACGFLLAAIHQAGLVALTHTPSPMNFLQKILQRPENERPFLLVPVGYPAEGAMVPDLQRKDKAAVMVVY
# B10: enzyme (Parabacteroides distasonis, UniProt A0A7L5EB83); chain QSETNRLDSIMPVRGLAIAAPSAQKLDLFLKFVQEELAPSHFNLLILRVDWNYAYESHPELRDPTPLTREDVKKIVKVCRDNGIRIAPQINLLGHQSWAETTYALLREYPEFDETPHVDTKNYTGWPNSDGLYCKSYCPLHPEVHKIVFALVDELTDVFETQLFHAGMDEVFYIGHDSCVRCGGHDKAELYAGEVTKIQNHLASQGKRLMIWGDRLIDGKTTGIGAWEASMNNTYRAIDLIPKDVFICDWHYERAEQTAVYFAMKGFDVATCPWRKPQIALQQVDDMIHFRQHSNPEMSRHFQGIIETVWSGTDSFLEAYYNPTTYKQEVSDAVTVKKLIEKYKALENR
# B11: enzyme (Populus trichocarpa, UniProt A0A2K2BRQ9); chain MVYQKKIVEEVSGWLRIFDDGWVDRTWIGPPQVKFMAEPVPPHEEFIEGVAIRDVTIDENSGLSVRIYLPQHEPDHYTDNSDKLPLIVHFHGGGFCISQADWYMYYYIYSRLARSAPAIVVSVYLRLAPEHRLPAAIDDGFSALMWLRALAQGQESYEPWLNNHGDFNRVFLIGDSSGGNLVHHVAARAGQVDLSPMRLAGGIPVHPGFVRSERSKSEMEQPESPFLTLDMVDRFLKLALPKGCTKDHPFTCPMGHAAPPLDSLNLPPFLLCVAEADLIRDTEMEYYEAMKKANKDVELLINPGVGHSFYLNKIAVDMDPHTAAQTTGLLEGIVEFIKKH
# B12: enzyme S252E/S281E/S285E/S287E (Schizosaccharomyces pombe, UniProt P78804); chain MSTPYEPEFQQAYKEIVGSIESSKLFEVHPELKRVLPIISIPERVLEFRVTWEDDKGNCRVNTGYRVQFNSALGPYKGGLRFHPSVNLSILKFLGFEQIFKNALTGLPMGGGKGGSDFDPKGKSDNEIRRFSQAFMRQLFRYIGPQTDVPAGDIGVTGFVVMHMFGEYKRLRNEYSGVVTGKHMLTGGSNIRPEATGYGVVYYVKHMIEHRTKGAETLKGKRVAISGSGNVAQYAALKCIQEGAIVKSISDEKGVLIAKTAEGLVPEEIHEIMALKEKRAEIADEAELCKKHHYIAGARPWTNVGEIDIALPCATQNEVSGEEAAALIKQGCRYVAEGSNMGSSAEAVEVFEKSRASGEGCWLAPGKAANAGGVAVSGLEMAQNAQFSTWTHAEVDAKLAGIMQNIFEQSTDVASKYCDSGSNNIPSLVDGANIAGFLKVATAMQAVGDWW
# B13: enzyme (Methylibium petroleiphilum, UniProt A2SI32); chain PFAQIYLIEGRTEEQKRAVIEKVTQAMMEAVGAPKENVRVWIHDVPKENWGIGGVSAKALGR
# UniProt P26208, sequence (whole entry, looked up): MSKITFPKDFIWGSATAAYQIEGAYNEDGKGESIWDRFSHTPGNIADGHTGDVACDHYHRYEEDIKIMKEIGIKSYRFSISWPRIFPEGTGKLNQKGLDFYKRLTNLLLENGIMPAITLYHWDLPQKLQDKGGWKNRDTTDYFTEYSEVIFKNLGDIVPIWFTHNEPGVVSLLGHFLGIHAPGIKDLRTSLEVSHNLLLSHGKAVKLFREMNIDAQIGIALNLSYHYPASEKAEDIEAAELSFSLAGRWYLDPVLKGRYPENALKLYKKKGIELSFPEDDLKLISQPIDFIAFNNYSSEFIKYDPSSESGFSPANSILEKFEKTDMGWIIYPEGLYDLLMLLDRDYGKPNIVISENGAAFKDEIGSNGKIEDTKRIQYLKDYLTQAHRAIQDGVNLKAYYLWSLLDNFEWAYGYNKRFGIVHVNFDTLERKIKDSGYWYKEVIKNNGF
# UniProt P0AE52, sequence (whole entry, looked up): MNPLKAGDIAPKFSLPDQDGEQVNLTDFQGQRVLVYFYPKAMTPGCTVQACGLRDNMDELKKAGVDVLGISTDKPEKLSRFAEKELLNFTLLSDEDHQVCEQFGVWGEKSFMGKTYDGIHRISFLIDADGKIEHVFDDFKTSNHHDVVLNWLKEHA
# UniProt P09546, sequence (whole entry, looked up): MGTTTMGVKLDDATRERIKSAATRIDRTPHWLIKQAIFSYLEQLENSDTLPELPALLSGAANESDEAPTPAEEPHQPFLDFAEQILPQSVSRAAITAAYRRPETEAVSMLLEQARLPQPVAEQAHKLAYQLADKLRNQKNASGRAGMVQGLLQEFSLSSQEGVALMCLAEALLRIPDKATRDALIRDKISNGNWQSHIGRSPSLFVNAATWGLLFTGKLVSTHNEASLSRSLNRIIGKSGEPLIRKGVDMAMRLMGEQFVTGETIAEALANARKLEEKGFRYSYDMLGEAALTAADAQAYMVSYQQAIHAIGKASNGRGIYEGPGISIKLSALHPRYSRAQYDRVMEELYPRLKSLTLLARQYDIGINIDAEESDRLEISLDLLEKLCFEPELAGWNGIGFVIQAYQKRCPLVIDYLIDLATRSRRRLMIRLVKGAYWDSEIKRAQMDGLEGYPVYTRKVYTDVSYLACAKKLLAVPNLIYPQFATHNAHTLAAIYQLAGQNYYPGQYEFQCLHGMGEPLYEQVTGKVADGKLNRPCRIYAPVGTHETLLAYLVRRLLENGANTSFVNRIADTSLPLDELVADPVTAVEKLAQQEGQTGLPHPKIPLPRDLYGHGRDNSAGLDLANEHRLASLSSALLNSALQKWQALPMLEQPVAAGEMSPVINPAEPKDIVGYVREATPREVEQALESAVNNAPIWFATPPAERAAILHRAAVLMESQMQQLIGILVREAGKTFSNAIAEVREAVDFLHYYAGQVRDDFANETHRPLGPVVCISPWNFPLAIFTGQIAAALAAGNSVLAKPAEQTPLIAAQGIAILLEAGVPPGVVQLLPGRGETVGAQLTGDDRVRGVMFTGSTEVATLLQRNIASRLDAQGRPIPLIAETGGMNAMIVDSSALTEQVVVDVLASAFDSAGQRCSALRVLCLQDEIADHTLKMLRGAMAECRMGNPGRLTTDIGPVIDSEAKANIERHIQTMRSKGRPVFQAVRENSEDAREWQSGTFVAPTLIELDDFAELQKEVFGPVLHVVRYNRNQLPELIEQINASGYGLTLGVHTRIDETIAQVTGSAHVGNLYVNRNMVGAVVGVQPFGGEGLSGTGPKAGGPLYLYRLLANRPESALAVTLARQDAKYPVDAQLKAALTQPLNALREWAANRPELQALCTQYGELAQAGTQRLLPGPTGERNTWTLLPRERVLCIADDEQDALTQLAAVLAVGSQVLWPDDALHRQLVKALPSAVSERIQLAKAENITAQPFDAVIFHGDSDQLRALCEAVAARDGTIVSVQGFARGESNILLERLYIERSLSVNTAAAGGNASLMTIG
# UniProt P0A9Q9, sequence (whole entry, looked up): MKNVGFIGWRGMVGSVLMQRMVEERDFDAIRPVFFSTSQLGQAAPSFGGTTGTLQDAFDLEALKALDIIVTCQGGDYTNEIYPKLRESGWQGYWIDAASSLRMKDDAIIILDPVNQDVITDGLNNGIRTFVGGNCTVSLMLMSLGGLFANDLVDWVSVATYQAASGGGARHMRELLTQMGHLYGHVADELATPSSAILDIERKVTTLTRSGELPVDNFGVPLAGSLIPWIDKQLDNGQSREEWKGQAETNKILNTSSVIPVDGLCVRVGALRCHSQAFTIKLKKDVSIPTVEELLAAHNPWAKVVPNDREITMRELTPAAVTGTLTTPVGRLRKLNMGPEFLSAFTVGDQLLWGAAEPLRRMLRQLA
Substance,substrate,pH,temperature,setting,with,Km [µM]
B1 (SCO6712 S292F),CCn1c(=NN=c2sc3cc(S(=O)(=O)O)ccc3n2CC)sc2cc(S(=O)(=O)O)ccc21,pH 7,37 °C,NaCl 150 mM,O2 cosubstrate,1700
"asd (Escherichia coli, UniProt P0A9Q9)",N[C@@H](CCC=O)C(=O)O,pH 7.6,,apparent,1 mM NADP+,310
B2 (gdhA W89F),NC(=O)c1ccc[n+]([C@@H]2O[C@H](COP(=O)(O)OP(=O)(O)OC[C@H]3O[C@@H](n4cnc5c(N)ncnc54)[C@H](OP(=O)(O)O)[C@@H]3O)[C@@H](O)[C@H]2O)c1,pH 7.5,20 °C,,,142
B3 (enzyme),CC(C)C(=O)O,pH 7.5,37 °C,,,8.9
"bcp (Escherichia coli, UniProt P0AE52)",CC(C)(C)OO,pH 7,25 °C,apparent,,574
B4 (enzyme),NC(=O)c1ccc[n+]([C@@H]2O[C@H](COP(=O)(O)OP(=O)(O)OC[C@H]3O[C@@H](n4cnc5c(N)ncnc54)[C@H](O)[C@@H]3O)[C@@H](O)[C@H]2O)c1,,,,,160
B5 (enzyme),C[C@H](CCC(=O)NCC(=O)O)[C@H]1CC[C@H]2[C@@H]3[C@H](O)C[C@@H]4C[C@H](O)CC[C@]4(C)[C@H]3C[C@H](O)[C@]12C,pH 6.2,37 °C,,,1300
B6 (ackA),Nc1ncnc2c1ncn2[C@@H]1O[C@H](COP(=O)(O)OP(=O)(O)OP(=O)(O)O)[C@@H](O)[C@H]1O,pH 7.6,25 °C,,acetate,350
B7 (enzyme),O=C(O)[C@H](O)CO,pH 7.8,30 °C,,,210
B8 (enzyme),CC/C=C\C[C@@H]1C(=O)CC[C@@H]1CC(=O)O,pH 7.5,20 °C,,,11.5
"putA (Escherichia coli, UniProt P09546)",CC1=CC(=O)c2ccccc2C1=O,pH 7.4,20 °C,,proline 200 mM,79
B9 (enzyme),N[C@@H](Cc1ccc(O)c(I)c1)C(=O)O,pH 7.4,25 °C,,dithionite,14
B10 (enzyme),CC(=O)N[C@H]1[C@H](Oc2ccc([N+](=O)[O-])cc2)O[C@H](CO)[C@@H](O[C@@H]2O[C@H](CO)[C@H](O)[C@H](O)[C@H]2O)[C@@H]1O,pH 6,50 °C,,,1770
enzyme (UniProt F0RRL2),OC[C@H]1O[C@@](CO)(O[C@H]2O[C@H](CO)[C@@H](O)[C@H](O)[C@H]2O)[C@@H](O)[C@@H]1O,pH 5.5,37 °C,apparent,,53500
B11 (enzyme),O=C(OCc1ccccc1)c1ccccc1O,pH 7,25 °C,,,37
B12 (enzyme S252E/S281E/S285E/S287E),NC(=O)C1=CN([C@@H]2O[C@H](COP(=O)(O)OP(=O)(O)OC[C@H]3O[C@@H](n4cnc5c(N)ncnc54)[C@H](OP(=O)(O)O)[C@@H]3O)[C@@H](O)[C@H]2O)C=CC1,pH 7,30 °C,apparent,,140
B13 (enzyme),O=C(O)/C=C/C=C(\O)C(=O)O,pH 7.3,24 °C,,,140
"bglA (Acetivibrio thermocellus, UniProt P26208)",O=[N+]([O-])c1ccc(O[C@@H]2OC[C@H](O)[C@H](O)[C@H]2O)cc1,pH 5.5,60 °C,,,1510
acsA L233M (Pseudomonas chlororaphis),O=C(O)CCC(F)(F)F,pH 7,,,,950

# A few entries again:
Substance,substrate,pH,temperature,setting,with,Km [µM]
"bcp (Escherichia coli, UniProt P0AE52)",CC(C)(C)OO,pH 7,25 °C,apparent,,574
B4 (enzyme),NC(=O)c1ccc[n+]([C@@H]2O[C@H](COP(=O)(O)OP(=O)(O)OC[C@H]3O[C@@H](n4cnc5c(N)ncnc54)[C@H](O)[C@@H]3O)[C@@H](O)[C@H]2O)c1,,,,,160
B5 (enzyme),C[C@H](CCC(=O)NCC(=O)O)[C@H]1CC[C@H]2[C@@H]3[C@H](O)C[C@@H]4C[C@H](O)CC[C@]4(C)[C@H]3C[C@H](O)[C@]12C,pH 6.2,37 °C,,,1300
